{"data": "Measurements from different studies", "note": "± gives the spread as reported.", "chain of UniProt P05181 (whole entry, looked up)": "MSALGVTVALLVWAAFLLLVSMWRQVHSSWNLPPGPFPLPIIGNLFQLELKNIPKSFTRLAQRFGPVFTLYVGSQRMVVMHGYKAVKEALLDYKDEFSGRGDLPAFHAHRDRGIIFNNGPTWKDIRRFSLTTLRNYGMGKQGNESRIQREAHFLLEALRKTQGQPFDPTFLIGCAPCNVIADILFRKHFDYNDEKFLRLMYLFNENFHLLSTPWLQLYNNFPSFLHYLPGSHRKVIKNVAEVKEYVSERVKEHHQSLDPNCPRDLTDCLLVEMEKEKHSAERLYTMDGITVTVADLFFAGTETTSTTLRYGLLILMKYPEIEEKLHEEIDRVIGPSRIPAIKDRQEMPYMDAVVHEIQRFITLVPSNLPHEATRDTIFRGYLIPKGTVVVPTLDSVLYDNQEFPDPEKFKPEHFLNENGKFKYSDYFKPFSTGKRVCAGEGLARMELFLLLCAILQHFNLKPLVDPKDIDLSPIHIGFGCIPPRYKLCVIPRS", "chain of UniProt P05177 (whole entry, looked up)": "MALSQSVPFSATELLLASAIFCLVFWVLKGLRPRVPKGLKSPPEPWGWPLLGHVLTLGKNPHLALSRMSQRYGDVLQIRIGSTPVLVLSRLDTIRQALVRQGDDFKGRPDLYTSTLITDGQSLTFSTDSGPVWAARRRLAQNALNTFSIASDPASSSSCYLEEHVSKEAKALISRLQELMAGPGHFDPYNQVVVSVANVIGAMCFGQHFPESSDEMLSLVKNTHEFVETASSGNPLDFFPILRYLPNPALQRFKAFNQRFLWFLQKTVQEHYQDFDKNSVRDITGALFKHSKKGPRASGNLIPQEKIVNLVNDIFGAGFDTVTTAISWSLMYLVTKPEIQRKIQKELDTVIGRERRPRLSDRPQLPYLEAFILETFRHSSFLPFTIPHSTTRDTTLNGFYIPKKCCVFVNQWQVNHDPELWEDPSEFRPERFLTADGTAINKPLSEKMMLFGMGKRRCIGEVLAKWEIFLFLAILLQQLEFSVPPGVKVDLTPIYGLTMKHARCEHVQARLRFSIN"}
{"SMILES": "N=C(N)NCCC[C@@H]1NC(=O)[C@H](Cc2c[nH]c3ccccc23)NC(=O)[C@@H](CC2CCCCC2)NC(=O)[C@@H]2CCCN2C(=O)[C@@H](NC(=O)CCc2ccccc2)CCCNC1=O", "test system": "C57BL/6J mouse, plasma spinal cord", "conditions": "intravenous, 1 mg/kg single dose", "measurement": "MRT(0-last)", "result": "37.2 min"}
{"SMILES": "O=C(O)c1cc(Br)c(O)c(Br)c1", "tested on": "Cytochrome P450 2E1 (CYP2E1, Homo sapiens, UniProt P05181)", "test": "p-nitrophenol hydroxylation, inhibitor", "conditions": "10 min, with: p-nitrophenol 100 µM", "measurement": "IC50", "result": "1000 nM"}
{"SMILES": "C[C@]12CC[C@@H]3c4ccc(OCC(=O)N[C@@H](CCCCNC(=O)CN5CCN(CC(=O)[O-])CCN(CC(=O)[O-])CCN(CC(=O)[O-])CC5)C(=O)O)cc4CC[C@H]3[C@@H]1CCC2=O.[68Ga+3]", "tested on": "estrogen receptor", "test system": "nude mice, MCF7 xenograft, tumour", "conditions": "dose not given, 2.5 h post-injection, with: estradiol blocking dose", "measurement": "radioactivity uptake", "result": "1.02 ± 0.19 %ID/g"}
{"SMILES": "[64Cu+2].c1ccc(CNCc2ccc(CN3CCCN4CCNCCCN(CC4)CC3)cc2)nc1", "tested on": "CXCR4", "test system": "NOD/SCID mouse, U87 and U87-stb-CXCR4 xenografts, pancreas", "conditions": "iv, 480 min, ex vivo", "measurement": "tissue uptake", "result": "1.3 ± 0.11 %ID/g"}
{"SMILES": "COc1cc(-c2nc3ccccc3s2)cc(CN(C)Cc2ccccn2)c1O", "tested on": "Zn2+", "test": "UV-vis pH titration", "conditions": "M2+ + HL = [MHL]+ complex", "measurement": "log K", "result": 6.12}
{"SMILES": "CC1(C)CCC2(CO)C(=C3C=CC4[C@@]5(C)CCC(O)[C@@](C)(CO)C5CC[C@@]4(C)[C@]3(C)C[C@H]2O)C1 (stereo partly shown)", "tested on": "Caco-2 monolayer", "test": "Caco-2 bidirectional transport", "conditions": "10 µM, 3 h, 37 °C", "measurement": "recovery apical to basolateral", "result": "89.9%"}
{"SMILES": "CC(=O)OC(CF)Cn1cnc([N+](=O)[O-])c1 (stereo not shown)", "tested on": "Salmonella enterica serovar Typhimurium", "test": "Ames test", "test system": "TA100", "conditions": "72 h", "measurement": "mutagenic potency", "result": "41.7 revertants/µg"}
{"SMILES": "O=C(CCC(=O)NCCS(=O)(=O)O)NCCNC(=O)[C@@H](Cc1ccccc1)NC(=O)[C@@H](Cc1ccccc1)NC(=O)CCNc1ccc([N+](=O)[O-])c2nonc12", "tested on": "HeLa", "conditions": "200 µM, 24 h, five PBS washes", "measurement": "intracellular concentration after washes", "result": "0.08 mM"}
{"SMILES": "CC(=O)OC(CCl)Cn1cncc1[N+](=O)[O-] (stereo not shown)", "tested on": "Salmonella enterica serovar Typhimurium", "test": "Ames test, Bernstein slope", "test system": "TA98", "measurement": "mutagenic potency", "result": "0.69 ± 0.05 revertants/µg"}
{"SMILES": "C=CC(=O)Nc1cc(Nc2nccc(-c3cn(C)c4ccccc34)n2)c(OCC(F)(F)F)nc1N(C)CCN(C)C", "tested on": "Cytochrome P450 1A2 (CYP1A2, Homo sapiens, UniProt P05177)", "test": "substrate, LC-MS", "test system": "recombinant enzyme", "conditions": "3 µM, 60 min", "measurement": "remaining compound", "result": "93.7%"}
{"SMILES": "CCC(=O)N(C)c1ccc(Cl)c(Cl)c1", "tested on": "CHO-WBL", "conditions": "0.063 mg/mL, 3 h, without S9 activation", "measurement": "cells with one aberration", "result": "0%"}
{"SMILES": "O=C(O)CCC(NP(=O)(O)OCCC[C@@H](NC(=O)CC[C@H](NC(=O)CCCCCNC(=O)c1ccc([18F])cc1)C(=O)O)C(=O)O)C(=O)O (stereo partly shown)", "tested on": "CWR22Rv1 tumour model", "test system": "host not given, kidney", "conditions": "1 h, tumour-bearing", "measurement": "tracer uptake", "result": "18.1 %ID/g"}
{"SMILES": "CCCCCc1ccc2c(c1O)C(c1ccc(OC)c(OC)c1OC)OC2=O (stereo not shown)", "tested on": "Naegleria fowleri trophozoites", "test": "AlamarBlue", "test system": "ATCC 30808", "conditions": "48 h, 37 °C", "scale": "reference: J774A.1 CC50 over IC50 ATCC 30808", "measurement": "selectivity index", "result": "≥ 4.68"}
{"SMILES": "CC(=O)N[C@H](C(=O)N[C@H](C(=O)N[C@@H](CCCNC(=N)N)C(=O)N1Cc2ccccc2C[C@H]1C(=O)N[C@@H](Cc1ccccc1)C(N)=O)C1CCCCC1)C(C)C", "tested on": "human PBMC", "test": "Bio-Plex multiplex, item: TNF-a", "conditions": "250 µg/mL, 24 h", "measurement": "cytokine level", "result": "12.5 ± 15.3 pg/mL"}
{"SMILES": "[64Cu+2].c1cnc(CNCc2ccc(CN3CCCN4CCNCCCN(CC4)CC3)cc2)nc1", "tested on": "CXCR4", "test system": "NOD/SCID mouse, U87 and U87-stb-CXCR4 xenografts, stomach", "conditions": "iv, 30 min, ex vivo", "measurement": "tissue uptake", "result": "3.32 ± 0.27 %ID/g"}
{"SMILES": "CCCCCc1ccc2c(c1O)C(c1ccc(OC)c(OC)c1)OC2=O (stereo not shown)", "tested on": "Naegleria fowleri trophozoites", "test": "AlamarBlue", "test system": "ATCC 30808", "conditions": "48 h, 37 °C", "scale": "reference: J774A.1 CC50 over IC50 ATCC 30808", "measurement": "selectivity index", "result": "≥ 28.2"}
{"note": "For quick reference, copied from above:"}
{"SMILES": "CC(=O)OC(CF)Cn1cnc([N+](=O)[O-])c1 (stereo not shown)", "tested on": "Salmonella enterica serovar Typhimurium", "test": "Ames test", "test system": "TA100", "conditions": "72 h", "measurement": "mutagenic potency", "result": "41.7 revertants/µg"}
